Published values of several laboratories.
Parts stem from different laboratories: compare values within a part only.

Set 1 — method: RNA Bind-n-Seq; molecule type: RNA; matrix: in vitro; tested at: not given; relative to: input RNA pool; direction: higher = stronger binding; quantity: bound/input enrichment
Target: RING finger protein unkempt homolog, zinc fingers 1-6, GST-SBP tag (UNK, Homo sapiens, UniProt Q9C0B0, residues 30-357)
Setting: RNA with constant flanks, human-mouse chimeric sites, ends assumed
All sequences stand within: GGGAGUUCUACAGUCCGACGAUC … CAACAGAGGAUUGAGCAUCA
Residues (chain): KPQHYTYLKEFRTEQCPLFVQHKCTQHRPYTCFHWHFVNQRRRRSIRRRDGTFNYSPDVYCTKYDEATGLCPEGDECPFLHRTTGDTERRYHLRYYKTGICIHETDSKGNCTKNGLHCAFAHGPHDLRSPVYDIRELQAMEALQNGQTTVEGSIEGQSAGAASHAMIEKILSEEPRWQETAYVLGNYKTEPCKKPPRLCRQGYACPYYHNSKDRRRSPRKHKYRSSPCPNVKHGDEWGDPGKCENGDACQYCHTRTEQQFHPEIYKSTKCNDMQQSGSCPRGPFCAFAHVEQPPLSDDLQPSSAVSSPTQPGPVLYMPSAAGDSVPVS
Sequence = GAUAAGAAAAGCUUGUUGGAGACCCGCUUGCACAUCACUGGUAGAGACCUGAGGUGUCAAAUAGCUGAAACUUUCGGAUUUCAAGAAAAUUACAUCAAAAUUGUCAUAAAUAAGAAACAG; result = 0.474 ratio
Sequence = CGAGACAAGACAUCCAGAAAUAUGAGAGGCUCCCGGAUGAAUGGGUUGCCUAGCCCCACUCACAGCGCCCACUGUAGCUUCUACCGAACCAGAACCUUGCAGGCACUGAGUAAUGAGAAG; result = 0.126 ratio
Sequence = UGACAAGGGCACUGCAGAGCCAUGCCUUUCUUGGACAUACAGAAAAAGCUGGGCAUCAGCCUGGACCGAUGGUUGACGUUCCUAAGCGCAGAACAGCCCUAUAAGAACGCCGCUCGGUGC; result = 0.0847 ratio
Sequence = AAAGAGAAACUAAAGCAACUAAUAGAGAAGAGGAUUGGCAAAGAGAAUUUCAUAGAGAAACUAGGAUUUUAUUAGCAAACAUGAGUUUAUUCCAGAGCGUCUCAGAAACCCCAGCCAAAC; result = 16.9 ratio
Sequence = GGUGGGGUGGUCAUUGCCGUUUGAGCUCUGCUGAUUCAUGAGUCGCCUUCAAAACUCUCGUGUAGGGUUGACAAUGUGGGGGGGUGGGGGAUCCAGCUUAUUCUUUUUCCCCAGCCCCCA; result = 3.93 ratio
Sequence = UCAGGAACCCAGACAAACAUGAAUGUAAAUGAAGUCAUUAGCAAUAGAGCAAUUGAAAUGUUAGGAGGUGAACUUGGCAGCAAGAUACCUGUGCACCCCAAUGAUCAUGUUAACAAAAGC; result = 0.867 ratio
Sequence = AUAGAUGAAAUUGAUGUGGACCAGGAAGGAAUUGCUGAAAUGAUGCUGGAUGAAAAUGCUAUUGCUCAGGUCCCACGCCCUGGCACAUCUUUGAAGCUCCCUGGCACUAACCAAACAGGA; result = 0.31 ratio

Set 2 — method: protein binding microarray; molecule type: double-stranded DNA, one strand shown; matrix: in vitro; tested at: not given; relative to: not given; direction: higher = stronger binding; quantity: E-score
Target: Histone acetyltransferase KAT6A, winged helix 1, GST fusion (KAT6A, Homo sapiens, UniProt Q92794, residues 1-85)
Setting: 8-mer, flanks averaged, mean of 2 arrays, mostly near background
Residues (chain): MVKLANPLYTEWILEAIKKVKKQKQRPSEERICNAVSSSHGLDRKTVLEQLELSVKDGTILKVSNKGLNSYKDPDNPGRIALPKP
Sequence = ATGCAATG; result = -0.0685
Sequence = CGATAGCA; result = -0.0877
Sequence = ATTATCGA; result = -0.0158
Sequence = ATCCTATC; result = 0.00084
Sequence = CGCCCCCC; result = 0.18
Sequence = GGCGCTAA; result = 0.332
Sequence = ATCTGTAG; result = -0.0882

Set 3 — method: protein-binding microarray; molecule type: double-stranded DNA, one strand shown; matrix: in vitro; tested at: 2200 nM top; setting: 60-bp whole probe; with: salmon DNA 0.4 mg/ml; relative to: random background probes; direction: higher = stronger binding; quantity: fitted relative affinity; all sequences stand within: GCCTAGCAC … GTCTTGATTCGCTTGACGCTGCTG
Target: Interferon regulatory factor 7, full length, phosphomimetic (IRF7, Homo sapiens, UniProt Q92985, residues 1-503, S471D/S472D/S475D/S476D/S477D/S483D/S484D/S487D)
Residues (chain): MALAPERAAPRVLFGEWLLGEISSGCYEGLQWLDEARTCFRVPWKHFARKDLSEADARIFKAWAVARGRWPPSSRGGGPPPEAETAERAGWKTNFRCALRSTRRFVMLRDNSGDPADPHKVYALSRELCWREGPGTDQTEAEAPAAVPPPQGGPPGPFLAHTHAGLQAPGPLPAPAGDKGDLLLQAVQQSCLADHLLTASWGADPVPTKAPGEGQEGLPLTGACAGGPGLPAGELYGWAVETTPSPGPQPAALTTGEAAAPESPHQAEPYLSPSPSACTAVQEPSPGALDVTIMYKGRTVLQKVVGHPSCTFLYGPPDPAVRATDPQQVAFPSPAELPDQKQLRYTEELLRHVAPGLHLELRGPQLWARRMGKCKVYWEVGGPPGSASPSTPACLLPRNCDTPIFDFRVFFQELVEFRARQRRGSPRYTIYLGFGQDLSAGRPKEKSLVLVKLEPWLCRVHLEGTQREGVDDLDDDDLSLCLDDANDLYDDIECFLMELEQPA
Sequence = TTAGGTTTCGACACTGGTTTAGTGCTA; result = 2.22 z-score
Sequence = GACGGTGTCCTTTTCCTGACGTGCTAG; result = 0.846 z-score
Sequence = GACGATTTCACACTGGAGACGTGCTAG; result = 0.904 z-score
Sequence = TCAAGCCTCTGCATTCCCACTGTGCTA; result = 0.702 z-score
Sequence = TCATTTTTCCTAATTGAACTGTGCTAG; result = 2.1 z-score
Sequence = TTAGAACTGGACTATCGGTTAGTGCTA; result = -0.163 z-score
Sequence = TTTTTTTTTGGAATGTCTTCGTGCTAG; result = 2.34 z-score

Other studies, line by line
Substance = PhoQ, residues 284 288 289 292 302 303 SLANIV; target = PhoP, residues 12 14 15 18 19 FWNTL (Escherichia coli, UniProt P23836); test = Sort-seq, item: YFP reporter; test system = E. coli; setting = PhoQ-PhoP variant library, with: 10 µM Mg2+; scale = relative to: high Mg2+ state, higher = stronger signaling; quantity = fold induction; result = 4.36

For quick reference, copied from above (set 2):
Sequence = CGATAGCA; result = -0.0877
Sequence = ATTATCGA; result = -0.0158
Sequence = ATCCTATC; result = 0.00084
